Published values of several laboratories.
Protocols differ between the studies behind these lines.
Technique: steady-state kinetics
B1: pdh1 (Macropsalliota meleagris, UniProt Q3L245); chain AITYQHPDDLPSGVDYDFIVAGGGTAGLVVASRLSENSNWKVLVIEAGPSNKDAFVTRVPGLASTLGAGSPIDWNYTTIPQDGLDGRSLDYPRAKILGGCSTHNGMVYTRGSKDDWNSWAGIIGDQGLGWDSILPAIKKAEKFTQDFTDQSVKGHIDPSVHGFDGKLSVSAAYSNISFNDLLFETTKELNAEFPFKLDMNDGKPIGLGWTQYTIDNHAERSSSATSYLESTGDNVHVLVNTLVTRVLSASGNGTDFRKVEFAVDANSPKKQLEAKKEVIVAGGVIASPQILMNSGIGERKVLQAVGIDTLIDNPSVGKNLSDQGATSVMFDTTLPSTDFDVDAALTEWTNSHTGPLARGARLNHLTFVRLPDDKLNGQDPSSGKNSPHIEFQFAQITPQVPTLGVPKQAPLPAANSYRLLLQLAVVNLYSISRGSISLSDNNPFTYPLIDLNMFKEDIDIAILREGIRSAGRMFSSKAFKNSVNKFVYPPADATSDEDLDAFLRSSTFSYVHGVGTLSMSPKGASWGVVNPDFKVKGTSGLRVVDASVIPHAPAAHTQLPVYAFAEYASALIAKSYN
B2: enzyme (Brachypodium distachyon, UniProt I1HY48); chain MGSIASEERTVTGWAARDADGHLSPYTYTLRKTGPEDVLVKVLYCGICHTDIHQAKNHLGASKYPMVPGHEVVGEVVEVGGEVSKYSAGDVVGVGVIVGCCRECRPCKASVEQYCNKRIWSYNDVYTDGRPTQGGFSSAMVVDQKFVVRIPAGLAPEQAAPLLCAGVTVYSPLKHFGLMSPGLRGGILGLGGVGHMGVKVAKSMGHHVTVISSSGKKRAEAMDDLGADAYLVSSDADQMAAAADSLDYVIDTVPVKHPLEPYLSLLKMDGKLVLMGVIGEPLSFVSPMVMLGRKSITGSFIGSMEETEEVLKFCVEKGLTSQIEVVKMDYLNEALERLERNDVRYRFVVDVAGSKIEDAA
B3: KS T528V (Arabidopsis thaliana, UniProt Q9SAK2); chain ANNVSFEQTKEKIRKMLEKVELSVSAYDTSWVAMVPSPSSQNAPLFPQCVKWLLDNQHEDGSWGLDNHDHQSLKKDVLSSTLASILALKKWGIGERQINKGLQFIELNSALVTDETIQKPTGFDIIFPGMIKYARDLNLTIPLGSEVVDDMIRKRDLDLKCDSEKFSKGREAYLAYVLEGTRNLKDWDLIVKYQRKNGSLFDSPATTAAAFTQFGNDGCLRYLCSLLQKFEAAVPSVYPFDQYARLSIIVTLESLGIDRDFKTEIKSILDETYRYWLRGDEEICLDLATCALAFRLLLAHGYDVSYDPLKPFAEESGFSDTLEGYVKNTFSVLELFKAAQSYPHESALKKQCCWTKQYLEMELSSWVKTSVRDKYLKKEVEDALAFPSYASLERSDHRRKILNGSAVENTRVTKTSYRLHNICTSDILKLAVDDFNFCQSIHREEMERLDRWIVENRLQELKFARQKLAYCYFSGAATLFSPELSDARISWAKGGVLTVVVDDFFDVGGSKEELENLIHLVEKWDLNGVPEYSSEHVEIIFSVLRDTILETGDKAFTYQGRNVTHHIVKIWLDLLKSMLREAEWSSDKSTPSLEDYMENAYISFALGPIVLPATYLIGPPLPEKTVDSHQYNQLYKLVSTMGRLLNDIQGFKRESAEGKLNAVSLHMKHERDNRSKEVIIESMKGLAERKREELHKLVLEEKGSVVPRECKEAFLKMSKVLNLFYRKDDGFTSNDLMSLVKSVIYEPVSLQEESLT
B4: carbamoyl phosphate synthetase large subunit L720E (Escherichia coli, UniProt P00968); chain PKRTDIKSILILGAGPIVIGQACEFDYSGAQACKALREEGYRVILVNSNPATIMTDPEMADATYIEPIHWEVVRKIIEKERPDAVLPTMGGQTALNCALELERQGVLEEFGVTMIGATADAIDKAEDRRRFDVAMKKIGLETARSGIAHTMEEALAVAADVGFPCIIRPSFTMGGSGGGIAYNREEFEEICARGLDLSPTKELLIDESLIGWKEYEMEVVRDKNDNCIIVCSIENFDAMGIHTGDSITVAPAQTLTDKEYQIMRNASMAVLREIGVETGGSNVQFAVNPKNGRLIVIEMNPRVSRSSALASKATGFPIAKVAAKLAVGYTLDELMNDITGGRTPASFEPSIDYVVTKIPRFNFEKFAGANDRLTTQMKSVGEVMAIGRTQQESLQKALRGLEVGATGFDPKVSLDDPEALTKIRRELKDAGADRIWYIADAFRAGLSVDGVFNLTNIDRWFLVQIEELVRLEEKVAEVGITGLNADFLRQLKRKGFADARLAKLAGVREAEIRKLRDQYDLHPVYKRVDTCAAEFATDTAYMYSTYEEECEANPSTDREKIMVLGGGPNRIGQGIEFDYCCVHASLALREDGYETIMVNCNPETVSTDYDTSDRLYFEPVTLEDVLEIVRIEKPKGVIVQYGGQTPLKLARALEAAGVPVIGTSPDAIDRAEDRERFQHAVERLKLKQPANATVTAIEMAVEKAKEIGYPLVVRPSYVEGGRAMEIVYDEADLRRYFQTAVSVSNDAPVLLDHFLDDAVEVDVDAICDGEMVLIGGIMEHIEQAGVHSGDSACSLPAYTLSQEIQDVMRQQVQKLAFELQVRGLMNVQFAVKNNEVYLIEVNPRAARTVPFVSKATGVPLAKVAARVMAGKSLAEQGVTKEVIPPYYSVKEVVLPFNKFPGVDPLLGPEMRSTGEVMGVGRTFAEAFAKAQLGSNSTMKKHGRALLSVREGDKERVVDLAAKLLKQGFELDATHGTAIVLGEAGINPRLVNKVHEGRPHIQDRIKNGEYTYIINTTSGRRAIEDSRVIRRSALQYKVHYDTTLNGGFATAMALNADATEKVISVQEMHAQIK
B5: BaiA1 (Clostridium scindens, UniProt P07914); chain MKLVQDKITIITGGTRGIGFAAAKLFIENGAKVSIFGETQEEVDTALAQLKELYPEEEVLGFAPDLTSRDAVMAAVGTVAQKYGRLDVMINNAGITMNSVFSRVSEEDFKNIMDINVNGVFNGAWSAYQCMKDAKQGVIINTASVTGIYGSLSGIGYPTSKAGVIGLTHGLGREIIRKNIRVVGVAPGVVDTDMTKGLPPEILEDYLKTLPMKRMLKPEEIANVYLFLASDLASGITATTISVDGAYRP
B6: Sua5 (Pyrococcus abyssi, UniProt Q9UYB2); chain MTIIINVRERIEEWKIRIAAGFIREGKLVAFPTETVYGLGANALDENAVKRIFEAKGRPADNPLIIHIASFEQLEVLAKEIPEEAEMLAKRFWPGPLTLVLPKSEVVPRVITGGLDTVAVRMPAHEIALKLIELSERPIAAPSANISGKPSPTSAHHVAEDFYGKIECIIDGGETRIGVESTVIDLTEWPPVLLRPGGLPLEEIEKVIGEIRIHPAVYGKSVDTAKAPGMKYRHYAPSAEVIVVEGPRDKVRRKIEELIAKFKEEGKKVGVIGSGSYDADEVFYLGDTVEEIARNLFKALRHMDRTGVDVILAEGVEEKGLGLAVMNRLRKASGYRIIKV
B7: phyA (Aspergillus niger, UniProt P34752); chain ASRNQSSCDTVDQGYQCFSETSHLWGQYAPFFSLANESVISPEVPAGCRVTFAQVLSRHGARYPTDSKGKKYSALIEEIQQNATTFDGKYAFLKTYNYSLGADDLTPFGEQELVNSGIKFYQRYESLTRNIVPFIRSSGSSRVIASGKKFIEGFQSTKLKDPRAQPGQSSPKIDVVISEASSSNNTLDPGTCTVFEDSELADTVEANFTATFVPSIRQRLENDLSGVTLTDTEVTYLMDMCSFDTISTSTVDTKLSPFCDLFTHDEWINYDYLQSLKKYYGHGAGNPLGPTQGVGYANELIARLTHSPVHDDTSSNHTLDSSPATFPLNSTLYADFSHDNGIISILFALGLYNGTKPLSTTTVENITQTDGFSSAWTVPFASRLYVEMMQCQAEQEPLVRVLVNDRVVPLHGCPVDALGRCTRDSFVRGLSFARSGGDWAECFA
B8: protein (Sinorhizobium meliloti, UniProt Q92WA4); chain MNYFRNDFRGTLFGTNEATDSLRRRSLQKRILVTGGAGFLGSHLCELLLGAGHEVICLDNFSTGLRRNIAPLKRFDTFRVIAHDVVEPIDLEVDEIYNLACPASPPHYQADPIQTTKTCVIGSLNLLDLAARRGARIFQASTSEIYGDPHVHPQVESYWGNVNPFGPRSCYDEGKRCAETLFFDFHKSHGVEIKIVRIFNTYGPRMRPDDGRVVSNFIVQALKGEDITIYGDGSQTRSFCFVEDLIDGFVRLMASPPSLTGPVNLGNPAEFTIGELAEEVIRLTGSRSKIVRRPLPVDDPRQRRPDISLATEELGWRPKVNLAEGLAHTIRYFDDLLSRSMRESAELV
B9: putA N1014A (Rhodobacter capsulatus, UniProt D5AN87); chain MTDLSALGPKAKFAPEAEVLQALVAQAALPQPQLDRIAARGADLVARIRAEAKPSLMEHFLAQYGLSTREGVALMCLAEAMLRVPDTATIDALIEDKIAPSDWGKHLGTAASSLVNASTWALMLTGKVLDDGAGGIAGTLRGAMRRLGEPVIRAAVGQAMREMGRQFVLGETIEKALERAEKREAEGYTFSYDMLGEAALTAADAERYRLAYAQAITAIGKAATRGSIAANPGISIKLSALHPRYEVAQEARVMAELVPVVRDLARAAARAGIALHIDAEEQDRLALSLRVMAAVIADPETAGWEGFGAVVQAYGKRAGAAIDALAAMARAAGRRINIRLVKGAYWDAEMKRAQVEGHPGFPLFTSKTGTDVAYICLAAKLFGLNDCIYPQFATHNAHTVAAVLEMAAGRPFEFQRLHGMGARLHDIVLRETGGRCRIYAPVGAHRDLLAYLVRRLLENGANSSFVNQIVNESVPPAEVAACPFAALPTARAPRGLLAPADLFGAGRVNAQGFDLSDPEVLARIEAARDVTLPDAAPIVAGPVSGTLRPVRNPATGAVVAQVTEADAATVALALDAAQVWSAPAATRAAVLCRAADLYEENFGPIFAALAQEAGKTLGDAVSELREAVDFLRYYAAEGAADTRPPRGAVVAISPWNFPLAIFTGQVAAALMAGNAVLAKPAEQTPIIAALAVRLLHQAGVPETALQLLPGDGPTVGAALTRDPRVAGVVFTGSTETAQIIARAMAAHLAPGTPLIAETGGLNAMVVDSTALPEQAVRDVVASAFRSAGQRCSALRCLYVQDDIAPHLIGMLKGAMEELVSGDPARLSTDVGPVIDAEAKAGIETYLAANKARILHRSTAPEGGHFVAPALLQVGGIADLEREIFGPVLHLATFAAEDLPAVIAAINARGYGLTFGLHSRIDARVETVAETIRAGNIYVNRNQIGAVVGSQPFGGEGLSGTGPKAGGPLYLNRFYAPEPVVAVGGWTEAATPILPEARETQLDEIFLPGPTGELARLTRHQRGPILCLGPGAEAASAQAAAVVALGGQAVQASGAVSPKALETLTPLAGVLWWGAAEMGRAYAQALAVRPGPLVPLITAKPDLAHVAHERHLCVDTTAAGGNAALLAG
UniProt P16050, sequence (whole entry, looked up): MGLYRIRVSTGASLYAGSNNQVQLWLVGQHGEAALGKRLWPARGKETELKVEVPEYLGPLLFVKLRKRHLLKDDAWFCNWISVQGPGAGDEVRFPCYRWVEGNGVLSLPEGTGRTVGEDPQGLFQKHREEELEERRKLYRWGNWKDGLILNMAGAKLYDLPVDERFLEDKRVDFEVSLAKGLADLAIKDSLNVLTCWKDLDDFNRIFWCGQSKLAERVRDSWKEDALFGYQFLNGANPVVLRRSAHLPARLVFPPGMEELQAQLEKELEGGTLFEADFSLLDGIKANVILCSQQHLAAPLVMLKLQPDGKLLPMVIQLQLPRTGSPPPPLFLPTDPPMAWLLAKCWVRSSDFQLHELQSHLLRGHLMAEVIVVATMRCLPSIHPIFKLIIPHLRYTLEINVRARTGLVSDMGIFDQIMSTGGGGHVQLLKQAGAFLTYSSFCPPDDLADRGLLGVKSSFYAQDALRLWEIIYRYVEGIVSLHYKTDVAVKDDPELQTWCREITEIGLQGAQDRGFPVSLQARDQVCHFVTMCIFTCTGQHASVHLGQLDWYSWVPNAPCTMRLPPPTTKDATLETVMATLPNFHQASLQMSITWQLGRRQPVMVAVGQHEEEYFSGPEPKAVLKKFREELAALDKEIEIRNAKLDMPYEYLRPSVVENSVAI
UniProt P35149, sequence (whole entry, looked up): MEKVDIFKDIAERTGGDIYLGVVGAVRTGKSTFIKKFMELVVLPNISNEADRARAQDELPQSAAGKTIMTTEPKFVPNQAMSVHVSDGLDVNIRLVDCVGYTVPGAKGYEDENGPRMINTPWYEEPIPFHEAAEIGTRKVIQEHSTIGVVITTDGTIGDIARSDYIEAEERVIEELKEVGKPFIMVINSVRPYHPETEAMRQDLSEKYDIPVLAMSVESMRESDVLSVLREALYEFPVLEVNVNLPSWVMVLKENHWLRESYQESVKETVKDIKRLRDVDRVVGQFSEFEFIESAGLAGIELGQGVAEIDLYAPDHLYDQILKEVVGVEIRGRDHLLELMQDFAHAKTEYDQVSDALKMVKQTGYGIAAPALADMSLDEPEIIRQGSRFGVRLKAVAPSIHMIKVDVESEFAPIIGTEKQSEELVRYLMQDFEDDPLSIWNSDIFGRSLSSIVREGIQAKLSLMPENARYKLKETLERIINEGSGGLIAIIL

Substance	substrate	pH	temperature	setting	together with	Km
enzyme (Bifidobacterium adolescentis, UniProt A1A3M6)	O=[N+]([O-])c1ccc(O[C@H]2O[C@H](CO)[C@H](O)[C@H](O)[C@H]2O)cc1	pH 5	40 °C	–	–	5960 µM
protein (Candidatus Protochlamydia amoebophila, UniProt Q6MEN5)	O=c1ccn([C@@H]2O[C@H](COP(=O)(O)OP(=O)(O)OP(=O)(O)O)[C@@H](O)[C@H]2O)c(=O)[nH]1	pH 7	30 °C	transporter, labelled substrate, apparent, not purified	–	1320 µM
spoIVA (Bacillus subtilis, UniProt P35149)	Nc1ncnc2c1ncn2[C@@H]1O[C@H](COP(=O)(O)OP(=O)(O)OP(=O)(O)O)[C@@H](O)[C@H]1O	pH 7.5	37 °C	NaCl 150 mM	–	412 µM
B1 (pdh1)	Nc1ccc2nc3ccc(N)cc3[s+]c2c1	pH 7.5	22 °C	apparent	–	120 µM
ALOX15 (Homo sapiens, UniProt P16050)	CCCCC/C=C\C/C=C\C/C=C\C/C=C\CCCC(=O)O	pH 7.5	–	–	–	8.8 µM
B2 (enzyme)	NC(=O)C1=CN([C@@H]2O[C@H](COP(=O)(O)OP(=O)(O)OC[C@H]3O[C@@H](n4cnc5c(N)ncnc54)[C@H](OP(=O)(O)O)[C@@H]3O)[C@@H](O)[C@H]2O)C=CC1	pH 6.25	23 °C	cofactor varied	–	7.2 µM
B3 (KS T528V)	C=C1CC[C@@H]2C(C)(C)CCC[C@@]2(C)[C@@H]1CC/C(C)=C/COP(=O)(O)OP(=O)(O)O	pH 7.2	30 °C	GGPP-derived substrate	–	5 µM
B4	Nc1ncnc2c1ncn2[C@@H]1O[C@H](COP(=O)(O)OP(=O)(O)OP(=O)(O)O)[C@@H](O)[C@H]1O	pH 7.6	–	KCl 100 mM	glutamine 10 mM, ornithine 10 mM	1700 µM
B5 (BaiA1)	C[C@H](CCC(=O)SCCNC(=O)CCNC(=O)[C@H](O)C(C)(C)COP(=O)(O)OP(=O)(O)OC[C@H]1O[C@@H](n2cnc3c(N)ncnc32)[C@H](O)[C@@H]1OP(=O)(O)O)[C@H]1CC[C@H]2[C@@H]3CC[C@@H]4CC(=O)CC[C@]4(C)[C@H]3C[C@H](O)[C@]12C	pH 8.7	37 °C	–	NADH	5.6 µM
B6 (Sua5)	C[C@@H](O)[C@H](N)C(=O)O	pH 8	50 °C	KCl 35 mM	ATP, Mg2+, Mn2+, L-threonine 3–150 µM	11.5 µM
B7 (phyA)	O=P(O)(O)O[C@@H]1[C@@H](OP(=O)(O)O)[C@H](OP(=O)(O)O)[C@@H](O)[C@@H](OP(=O)(O)O)[C@H]1OP(=O)(O)O	pH 5	37 °C	–	–	159 µM
B8 (protein)	O=C(O)[C@H]1O[C@H](OP(=O)(O)OP(=O)(O)OC[C@H]2O[C@@H](n3ccc(=O)[nH]c3=O)[C@H](O)[C@@H]2O)[C@H](O)[C@@H](O)[C@@H]1O	pH 7.6	37 °C	–	NAD+ 1 mM	95 µM
B9 (putA N1014A)	O=C(O)[C@@H]1CCCN1	pH 8	23 °C	–	–	44500 µM

Repeated from above:
Substance	substrate	pH	temperature	setting	together with	Km
protein (Candidatus Protochlamydia amoebophila, UniProt Q6MEN5)	O=c1ccn([C@@H]2O[C@H](COP(=O)(O)OP(=O)(O)OP(=O)(O)O)[C@@H](O)[C@H]2O)c(=O)[nH]1	pH 7	30 °C	transporter, labelled substrate, apparent, not purified	–	1320 µM
spoIVA (Bacillus subtilis, UniProt P35149)	Nc1ncnc2c1ncn2[C@@H]1O[C@H](COP(=O)(O)OP(=O)(O)OP(=O)(O)O)[C@@H](O)[C@H]1O	pH 7.5	37 °C	NaCl 150 mM	–	412 µM
